Assay results collected from several papers.
Protocols differ between the studies behind these lines. Values joined by “and” are separate records of one study, mostly repeats; a detail may differ. ± gives the spread as reported.

| SMILES | test | system | setting | scale | measurement | result |
| --- | --- | --- | --- | --- | --- | --- |
| COc1cc(O)ccc1CCC(c1ccc(O)cc1)c1cc2c(c(C)c1O)OC(c1ccc(O)cc1)CC2 (mixture of isomers) | – | human blood | 10 µM, added: A23187 | – | LTB4 isomers level | 107 ± 67 pg/mL |
| COC1CN([C@H]2CC[C@H]([C@@]3(C)Oc4c(Cl)cc(C(=O)NCc5c(SC)cc(C)[nH]c5=O)c(C)c4O3)CC2)C1 | RNA-seq, item: EPB41L4A mouse homolog | mouse, HT-1376 xenograft, whole blood | dose not given | baseline: vehicle | log2 fold change | 1.07 |
| CN1CCC[C@]1(C)/C=C/S(=O)(=O)NC(=O)Nc1c2c(cc3c1CCC3)CCC2 | IL-18 release | human, whole blood ex vivo | oral, 100 mg twice daily, day 14, 336 h, multiple ascending dose, added: LPS and ATP | – | inhibition | 97.2% |
| COc1c(Cl)cccc1Nc1c(-c2ccncc2C#C[C@@]2(C)CCCN2C(=O)/C=C/CN(C)C)[nH]c2c1C(=O)NCC2 | – | female BALB/c nude mouse, sample A PDX | 50 mg/kg once daily, 28 days, EGFR ASV | – | tumour growth inhibition | 110% |
| CC(=O)[O-].O.[Cu+2].[O-]c1ccc(Br)cc1C=NCCN1CCOCC1 | FRAP | – | 240 µM | – | ferric reducing power | 66.7% |
| O=S(=O)(NCc1ccncc1)c1ccc(C2CCCCC2)cc1 | immunohistochemistry | CK-p25 mice male, hippocampal dentate gyrus | ip, 0.1 mg/kg daily, 2 wk | baseline: vehicle | IBA1 surface area reduction | ~54% |
| COCCOCCOCCNC(=O)Cc1cc(CC(=O)N[C@H]2C[C@H]3C(=O)Nc4cc(OCCOCCOCCOC)cc(n4)C(=O)N4CCC[C@H]4C(=O)Nc4cc(OCCOCCOCCOC)cc(n4)C(=O)N4CCC[C@H]4C(=O)Nc4cc(OCCOCCOCCOC)cc(n4)C(=O)N3C2)cc(CC(=O)N[C@H]2C[C@H]3C(=O)Nc4cc(OCCOCCOCCOC)cc(n4)C(=O)N4CCC[C@H]4C(=O)Nc4cc(OCCOCCOCCOC)cc(n4)C(=O)N4CCC[C@H]4C(=O)Nc4cc(OCCOCCOCCOC)cc(n4)C(=O)N3C2)c1 | anion binding, ITC | water/methanol 95 vol% (97.7 mol%) | 298 K, added: sodium sulfate | – | ΔH | 1.22 ± 0.0239 kcal/mol |
| O=[N+]([O-])[O-].O=c1c(C=NN=C([S-])Nc2ccccc2)coc2ccccc12.[Cu+2].c1cnc2c(c1)ccc1cccnc12 | DNA cleavage | supercoiled pUC19 DNA | 100 µM, 4 h, 37 °C, no reducing agent, added: DNA 40 µM | – | supercoiled DNA form | 81% |
| COc1ccc(C(=O)CCc2cc(C(CCc3ccc(O)cc3OC)c3ccc(O)cc3)c(O)cc2OC)cc1 (racemic) | – | human blood | 30 µM, added: A23187 | – | LTB4 isomers level | 327 ± 156 pg/mL |
| CCCCCCCCCCCCCCCC(=O)OCC(CSC[C@H](N)C(=O)N[C@@H](CO)C(=O)N[C@@H](CCCCN)C(=O)N[C@@H](CCCCN)C(=O)N[C@@H](CCCCN)C(=O)N[C@@H](CCCCN)C(=O)NCCCCCC(=O)N[C@@H](CCCCN)C(=O)N[C@@H](CC(C)C)C(=O)N[C@H](C(=O)N[C@@H](Cc1ccccc1)C(=O)N[C@@H](Cc1ccccc1)C(=O)N[C@@H](Cc1ccc2ccccc2c1)C(=O)O)C(C)C)OC(=O)CCCCCCCCCCCCCCC (stereo partly shown) | – | APP/PS1 transgenic mouse, cortex | local cortical injection, dose not given, unit not given | baseline: injected over adjacent side | Iba1 level | 2.38 and 2.4 and 3.39 and 4.64 and 3.61 and 2.99 and 5.47 |
